Assay results from different studies.
Parts stem from different laboratories: compare values within a part only.

Sample 1 — technique: RNA Bind-n-Seq; molecule type: RNA; matrix: in vitro; tested at: not given; reference: input RNA pool; reading: higher = stronger binding
Target: RING finger protein unkempt homolog, zinc fingers 1-6, GST-SBP tag (UNK, Homo sapiens, UniProt Q9C0B0, residues 30-357)
Setting: RNA with constant flanks, human-mouse chimeric sites, ends assumed
Target sequence (chain): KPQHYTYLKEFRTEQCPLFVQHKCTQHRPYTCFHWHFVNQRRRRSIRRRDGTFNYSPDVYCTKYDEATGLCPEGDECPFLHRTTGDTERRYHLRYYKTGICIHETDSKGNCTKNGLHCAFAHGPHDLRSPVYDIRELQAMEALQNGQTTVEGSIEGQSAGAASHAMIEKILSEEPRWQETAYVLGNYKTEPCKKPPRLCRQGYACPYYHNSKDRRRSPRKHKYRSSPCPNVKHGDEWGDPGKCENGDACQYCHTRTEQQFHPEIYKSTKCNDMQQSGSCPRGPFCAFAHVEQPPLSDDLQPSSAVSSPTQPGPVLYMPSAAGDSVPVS
Oligonucleotide	bound/input enrichment
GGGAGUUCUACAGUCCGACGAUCGAUCAUGAACCACCAUCAGAAAUGAAGAUGAGAUUACCCAGACGAGCCCAAAACCGCGCGCUACAGAAAAGUAAACUUAACCUUGCAGAGUUCCUUAAUGAAGAUACUAAGUUAGGAAGCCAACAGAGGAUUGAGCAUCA	0.361 ratio
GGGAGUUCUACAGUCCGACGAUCUCAAGGGGGCACUGCAGAGCCAUGCCUUUCCUUGACAUACAGAAAAAGCUGGGCAUCAGCCUGGACCGGCACUUUAUAAUCCAGAGUGCAGAACAGCCCUAUAAGAACGCCGCUCGGUGCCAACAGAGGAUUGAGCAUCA	0.0923 ratio
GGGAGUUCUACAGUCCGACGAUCCACUCGAGGGCUGCCGUUUUCUGUUUCUCCCUGGGCUGCAGACAGCUAGAAGAUUUUAUCUAGCUUAUACAAGGCUGCUGGUGUUCCCUCUUUUUUUCCACGAGGGUGUUUUUGGCUGCACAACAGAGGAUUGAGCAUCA	0.406 ratio
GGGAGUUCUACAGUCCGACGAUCAGGAGGAGGUUAAAGGGUGAAAAUGGGAUGGAGGAUUGUGUCAUGGCUCUGGAGACACUGUUCAGUGUCCUGCUUUCUCUGUGCAGACUGAUGGCCCCUUACACGCCCUUUCUGACUGAGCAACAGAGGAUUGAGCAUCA	0.118 ratio
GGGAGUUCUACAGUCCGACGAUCGUGACUGGUGUUAAGAUUUCCCCUCAGCAAAGAAGUGCAGUAGUCACCAUAAUUCCAUCUGUGGUGAAUGCCAAUCAGAUAAAAGAGCUGGUCCCAGACCUCAGUUUAGACAUGGGAACUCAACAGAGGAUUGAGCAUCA	0.263 ratio
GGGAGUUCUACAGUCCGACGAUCAGAAUCUGUGACUGGCUUUACUUAAUUGGUCAUUGAUAGCUUAACAAACAUGGAGAUAAGAUUAGAAAUCUUGACAUCAACAAGUAUUAAGCAGAAAAAACCAUGGCCACGUGUCUCCUGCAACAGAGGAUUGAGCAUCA	0.148 ratio
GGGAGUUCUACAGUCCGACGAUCUCGGAUGCUGUGCUGGGUCACUUUUCAUAUCCAGAUCCUUCACAGUGGACAGAUGAAGAACUGGGAAUCCCUCCUGAUGACGAGGACUGAAGGUGUAAACUCUCUGGACGAGUAGGAGCACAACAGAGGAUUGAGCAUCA	0.445 ratio
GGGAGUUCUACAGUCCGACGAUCUAUAUCACCAAUGUCCUACAAAAUCCUGAUUUGGCUCUGAGAAUGGCUGUGCGGAACAACUUAGCUGGUGCUGAAGAACUCUUUGCCCGGAAAUUUAAUGCUCUCUUUGCCCAGGGAAACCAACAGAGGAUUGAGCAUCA	0.471 ratio
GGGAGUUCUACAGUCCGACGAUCCCCUCCCCGGGCCACCCACCCCUCCCGGCUCCCCGCCGAGAUCCAGGUUUCUUCUUAUUUCAUAGCAAGCCAGAACAAUGUUCUACGCACAUUUUGUCCUCAGUAAAAGAGGGCCUCUGGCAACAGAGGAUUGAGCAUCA	1.65 ratio
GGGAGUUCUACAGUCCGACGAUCGCCACCAGAUCCCAGAAACAUGACCCUUGCUGCCUACAAAGAGAAGAUGAAGGAGCUCCCGCUGGUGUCUCUGUUCUGCUCCUGCUUCCUGGCCGAUCCCCUGAAUAAAUCAUCCUACAACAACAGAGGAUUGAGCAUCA	0.411 ratio
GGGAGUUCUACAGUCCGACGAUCCUUCGGAAAAAAAAAUUACCUUUUCUGACAGUGCUUUCCCUCCCAUAGAUCCACGUUCACACUAGAAGAGCAAAGGCUUUGCACGGAGCUCAAACAUCUGAUGAAGAAAGAUUUCUGAGACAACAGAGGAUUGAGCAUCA	1.12 ratio

Sample 2 — technique: RNA Bind-n-Seq; molecule type: RNA; matrix: in vitro; tested at: 1 µM; setting: whole 134-nt RNA, ends assumed; added: 150 mM KCl; reference: input library; reading: higher = stronger binding
Target: Ras GTPase-activating protein-binding protein 1, RRM domain (G3BP1, Homo sapiens, UniProt Q13283)
UniProt Q13283, sequence (whole entry, looked up): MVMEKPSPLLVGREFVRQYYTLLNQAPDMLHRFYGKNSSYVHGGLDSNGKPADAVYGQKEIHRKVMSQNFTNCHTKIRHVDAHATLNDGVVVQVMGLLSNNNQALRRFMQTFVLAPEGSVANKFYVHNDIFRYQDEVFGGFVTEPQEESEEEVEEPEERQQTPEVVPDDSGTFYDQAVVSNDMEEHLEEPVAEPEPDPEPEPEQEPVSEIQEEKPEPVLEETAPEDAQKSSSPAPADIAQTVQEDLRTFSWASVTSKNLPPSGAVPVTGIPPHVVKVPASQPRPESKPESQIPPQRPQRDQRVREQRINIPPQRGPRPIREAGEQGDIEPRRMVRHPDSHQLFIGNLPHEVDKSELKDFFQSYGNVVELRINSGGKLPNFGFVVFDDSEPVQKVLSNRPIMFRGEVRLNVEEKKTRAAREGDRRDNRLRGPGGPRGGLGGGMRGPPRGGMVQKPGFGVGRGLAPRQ
Oligonucleotide	log2 enrichment
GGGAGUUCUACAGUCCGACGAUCCUGUGCUACACAUCGUAUGUACCGAAUCGGGGAAAAAAAGGAAAAAAAGGGGAAAAAAAGGAAAGUAUUAUGUUACGCCGUUCGGAUCUGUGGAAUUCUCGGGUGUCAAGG	0.0556
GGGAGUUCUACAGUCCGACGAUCGUCCUGUGCUACACAUCGUAUGUACCGAAUCGGGGUUUGGGGAAAGGGGUUUUUGGGGAAAGUAUUAUGUUACGCCGUUCGGAUCUGCACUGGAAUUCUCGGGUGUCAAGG	1.57
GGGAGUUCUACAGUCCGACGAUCCCUGUGCUACACAUCGUAUGUACCGAAUCGGAAAAAAAGGAAAAAAAGGGAAAAAAAGGGGAAAGUAUUAUGUUACGCCGUUCGGAUCUGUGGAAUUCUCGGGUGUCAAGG	0.135
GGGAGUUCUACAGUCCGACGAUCGUCCUGUGCUACACAUCGUAUGUACCGAAUCGGGGUUUGGGGAAAAAGGGGUUUGGGGAAAGUAUUAUGUUACGCCGUUCGGAUCUGCACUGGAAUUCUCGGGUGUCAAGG	1.67
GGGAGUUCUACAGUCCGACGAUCGCAAAAAGUAAAAACAAAUGGAAAUGCUUCGGAUAGUGGCAGGGGUGGGGGUUGCUAAGGAAAGGGUGGGAUGGGAGUGGGUAAAGAGUUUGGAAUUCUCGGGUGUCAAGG	1.25
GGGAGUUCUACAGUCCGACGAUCCUCAAGUCCUGUGCUACACAUCGUAUGUACCGAAUCGGGAAGGGAAGGGGAAGGAAAGUAUUAUGUUACGCCGUUCGGAUCUGCACUUCCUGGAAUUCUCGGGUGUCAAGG	-0.195
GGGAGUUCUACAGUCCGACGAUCCAAGUCCUGUGCUACACAUCGUAUGUACCGAAUCGGAAAAAGGAGGAAAAAAAGGAAAGUAUUAUGUUACGCCGUUCGGAUCUGCACUUCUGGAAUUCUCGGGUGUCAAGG	-0.0831
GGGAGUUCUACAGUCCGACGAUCGCAGGAAGUAAAAACAAAUGGAAAUGCUUCGGAUAGUGCCAGGGGUGGGGGUUGCUAAGGAAAGGGUGGGAUGGGAGUGGGUAAAGAGUUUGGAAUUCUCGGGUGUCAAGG	0.83
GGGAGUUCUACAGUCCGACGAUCGAGGAGACUCUGCGCAGAGCACUUUGGGUCCGGAGGGCGAGACUCCGGCGGAAGCAUUCCCGGGCGGGUGACCCAGCACGGUCCCUCUUGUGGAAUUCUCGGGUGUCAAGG	-0.824
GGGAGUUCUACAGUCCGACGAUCUAACUUUAGAGGAGGAUCUGAUGGAUAUGGCAGUGGACGUGGAUUUGUGGAUGGCUAUAAUGGGUAUGGAGGAGGACCUGGAGGUGGCAAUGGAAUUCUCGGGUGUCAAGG	-0.418

Sample 3 — technique: RNA Bind-n-Seq; molecule type: RNA; matrix: in vitro; tested at: 365 nM; reference: no-protein control; reading: higher = stronger binding
Target: RNA binding protein fox-1 homolog 2, RRM domain, GST-SBP tag (RBFOX2, Homo sapiens, UniProt O43251-10, residues 100-194)
Setting: natural RNA segment, single round, ends assumed
Construct (chain): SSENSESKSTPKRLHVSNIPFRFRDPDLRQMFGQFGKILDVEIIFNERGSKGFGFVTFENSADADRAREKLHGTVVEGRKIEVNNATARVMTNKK
Oligonucleotide	RBNS enrichment (R)
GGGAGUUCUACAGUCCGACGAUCGGGCGCCCCCGCCCUGCUGGGGCUAUUUAUUGUUUAAUUUAUUUGCUGAGGUUCCUCCAAGCAACCACCUUCUCCAGGCCCCUGGGGUGUUGAAAGUCAAAUGUGGCUGUUGGAAUUCUCGGGUGCCAA	0.583
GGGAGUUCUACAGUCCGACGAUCCUGAGUCCACAAACAGCUGUUAGAACCUAGACAGCAGCAUGACUGGCUCAGAGCUCUUGCCCAUGAGCAGAUGUUUACAAGAGAGGAAAAGAUUGCUUGCUACGACUGCAUGGAAUUCUCGGGUGCCAA	9.69
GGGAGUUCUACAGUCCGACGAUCUUUGUUCUGUUUUUGUUUGUUUGUUUGUUUGUUUUUGUUUGUUUUGUGUUUUGUUUUUUACAAUACACAGUUCAGACAACAUCUUUUUACAGAUUUUAAAGCUUCAUUUAUGGAAUUCUCGGGUGCCAA	1.79
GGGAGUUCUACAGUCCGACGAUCCCCUCCGUGGCCUCCCGUGAGUGCAUGCCUGUAGUGCACAGUGUCUCUACAGGUGUCUUCUGGGGGGCAGAACCAAUUGGAAGGAAGAAAGGGACCCCUCUCCAGUCCUGUGGAAUUCUCGGGUGCCAA	0.34
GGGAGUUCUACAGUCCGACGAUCAGGUGUUUCUCCUUCUGGAUGAUUCAUCCCAAAGCCUUCCCACCCAGGUGUUCUCUGAAAGCUUAGCCUUAAGAGAACACGCAGAGAGUUUCCCUAGAUAUACUCCUGCCUGGAAUUCUCGGGUGCCAA	0.214
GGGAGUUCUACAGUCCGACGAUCACCCAUUAUAACAGAAUUUGUCAAAAGGAGUGUUUCUUGAGGAGGUAGCUUUUUUUUACCACACUACAGGACAUUACCUGUAGGCCCAGAAGACUACAGGCUGGUGUCCCUGGAAUUCUCGGGUGCCAA	0.327
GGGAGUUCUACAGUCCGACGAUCUAAGCCUUCUGCUUAUUCUCCUAGCACAAUGCAAGGAAAUUUUACUUUUUAAAUCUUAGAGAGAUUCCUACAGAUCUAUAAAGCAUGGAGCCAUUCCUGUAGUGAAGGGGUGGAAUUCUCGGGUGCCAA	0.797
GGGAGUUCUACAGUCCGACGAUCCUCGGGAAAAUGUGAAUGUGCCGCGUUUUGUUUUCAAUAUUGUAUGAAAACAGGAAAAAAAUAAAACAAAUUUAGAAAACACAGCUCAUUAAAAUAAAAUUGUUGGAUUUUGGAAUUCUCGGGUGCCAA	0.816
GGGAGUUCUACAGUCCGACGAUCUUGCUUGUUCUCCCCUAUAAAGUAGUAGGCUCCACACUUGUUUUUGUGGUAAACAGGAGCAGUCACUCCUCUGUCUAAGAACUGGGGGCAAGAAAGAGCAAAUUUGUCCUUGGAAUUCUCGGGUGCCAA	0.35
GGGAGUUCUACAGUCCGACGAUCUAGAGUAGUUUAGGGUCCCUGACUCGAACCCUCACUGUGCCUUCUGCCGGGGAGGAGGGGCUCCUGGGCCUGCUUCCUCCAGGCGCUCUAGAUGCACAAUCCAAUACAGUUGGAAUUCUCGGGUGCCAA	0.2
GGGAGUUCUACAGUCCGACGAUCAUCCCUUUUCCUGUCAGUGUUUUUGAAACCCACAGUUUUAGUUGGUGCUGAUGGAGGGAGGGGGAAGUCGAAGGAUGCUCUUUCCCUUUUCUGUUUAGGAAGAAGUGGUAUGGAAUUCUCGGGUGCCAA	0.304
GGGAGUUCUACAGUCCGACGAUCUAAUACAAUCUACUGUACAGUUAGCAAGCGAAGUGUUAAAUGGAGAAGAUGCUUGUUUUUAUUAAACAUUUGGAGAUUUAGAUAAUUUACAUUUUAACUGAAUGUCUAAAUGGAAUUCUCGGGUGCCAA	1.34

Sample 4 — technique: protein binding microarray; molecule type: double-stranded DNA, one strand shown; matrix: in vitro; tested at: not given; reference: not given; reading: higher = stronger binding
Target: Histone acetyltransferase KAT6A, winged helix 2, GST fusion (KAT6A, Homo sapiens, UniProt Q92794, residues 85-181)
Setting: 8-mer, flanks averaged, mean of 2 arrays, mostly near background
Residues (chain): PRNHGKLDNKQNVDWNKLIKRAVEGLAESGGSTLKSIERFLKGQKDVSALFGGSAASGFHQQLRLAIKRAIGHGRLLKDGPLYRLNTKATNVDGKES
Oligonucleotide	E-score
ACGATGCG	0.102
TATCGGGA	-0.109
CGAATTAC	-0.00852
CCCTAAGG	-0.0085
CGGGTATC	0.13
ATCTACAG	0.012
AGGGTGAC	0.0901
AGTTTGTG	0.0666
ACGACAAG	-0.111
ATATGGAG	-0.013
AACTCTTG	-0.0469
ATAAGGAT	-0.0588
AGCATACG	0.0616
CGGGGGAC	0.14
CGGGGAAG	0.0229
AGCATGAT	0.0306
CGATTCTA	-0.155
AATACCTG	-0.11
AAGACCTC	-0.0266
GGCCCGGA	0.119
CTCCCGTA	-0.00611

Excerpt of the above (sample 4):
Oligonucleotide	E-score
AAGACCTC	-0.0266
TATCGGGA	-0.109
AGCATGAT	0.0306
ATAAGGAT	-0.0588
ACGATGCG	0.102
AGGGTGAC	0.0901
ATCTACAG	0.012
